Measured values collected from several papers.
Each numbered part is a random draw from the data of one study; scales do not carry over between parts.
Sequence of UniProt P38919 (whole entry, looked up): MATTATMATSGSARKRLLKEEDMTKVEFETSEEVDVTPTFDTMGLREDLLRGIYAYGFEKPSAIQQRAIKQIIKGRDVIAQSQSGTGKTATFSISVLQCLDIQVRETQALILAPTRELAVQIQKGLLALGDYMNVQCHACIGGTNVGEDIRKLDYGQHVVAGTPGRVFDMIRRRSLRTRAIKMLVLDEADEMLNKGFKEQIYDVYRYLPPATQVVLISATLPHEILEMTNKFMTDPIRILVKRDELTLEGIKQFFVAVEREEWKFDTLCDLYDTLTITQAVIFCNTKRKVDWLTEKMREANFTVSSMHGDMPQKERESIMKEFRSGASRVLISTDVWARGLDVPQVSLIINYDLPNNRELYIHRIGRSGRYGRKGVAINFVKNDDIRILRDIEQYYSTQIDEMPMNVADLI

Sample 1
Target: Sox-I, HMG box (Salpingoeca helianthica)
Method: Spec-seq
Form: double-stranded DNA, one strand shown
Matrix: in vitro
Concentration: not given
Notes: whole probe, mean of replicates
Relative to: not given
Direction: lower = stronger binding
All sequences stand within: GAGTCGTCTCGTCAGCAC … CCGTAGAGCACTCAGGTC
Target sequence (chain): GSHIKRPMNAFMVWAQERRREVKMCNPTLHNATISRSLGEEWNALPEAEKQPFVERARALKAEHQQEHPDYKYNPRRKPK
| Oligonucleotide | relative binding energy |
| --- | --- |
| CATCTTC | 0.719 ln ratio |
| AAGAGTT | -0.277 ln ratio |
| TCGAGTT | 1.11 ln ratio |
| CATCCAC | 0.55 ln ratio |
| CCTTGTT | -1.52 ln ratio |
| GATGGTT | 1.04 ln ratio |
| CCGCGTT | 0.846 ln ratio |
| GAGGGTT | 1.07 ln ratio |

Sample 2
Target: UDP-N-acetylglucosamine--peptide N-acetylglucosaminyltransferase 110 kDa subunit (OGT, Homo sapiens, UniProt O15294)
Sequence of UniProt O15294 (whole entry, looked up): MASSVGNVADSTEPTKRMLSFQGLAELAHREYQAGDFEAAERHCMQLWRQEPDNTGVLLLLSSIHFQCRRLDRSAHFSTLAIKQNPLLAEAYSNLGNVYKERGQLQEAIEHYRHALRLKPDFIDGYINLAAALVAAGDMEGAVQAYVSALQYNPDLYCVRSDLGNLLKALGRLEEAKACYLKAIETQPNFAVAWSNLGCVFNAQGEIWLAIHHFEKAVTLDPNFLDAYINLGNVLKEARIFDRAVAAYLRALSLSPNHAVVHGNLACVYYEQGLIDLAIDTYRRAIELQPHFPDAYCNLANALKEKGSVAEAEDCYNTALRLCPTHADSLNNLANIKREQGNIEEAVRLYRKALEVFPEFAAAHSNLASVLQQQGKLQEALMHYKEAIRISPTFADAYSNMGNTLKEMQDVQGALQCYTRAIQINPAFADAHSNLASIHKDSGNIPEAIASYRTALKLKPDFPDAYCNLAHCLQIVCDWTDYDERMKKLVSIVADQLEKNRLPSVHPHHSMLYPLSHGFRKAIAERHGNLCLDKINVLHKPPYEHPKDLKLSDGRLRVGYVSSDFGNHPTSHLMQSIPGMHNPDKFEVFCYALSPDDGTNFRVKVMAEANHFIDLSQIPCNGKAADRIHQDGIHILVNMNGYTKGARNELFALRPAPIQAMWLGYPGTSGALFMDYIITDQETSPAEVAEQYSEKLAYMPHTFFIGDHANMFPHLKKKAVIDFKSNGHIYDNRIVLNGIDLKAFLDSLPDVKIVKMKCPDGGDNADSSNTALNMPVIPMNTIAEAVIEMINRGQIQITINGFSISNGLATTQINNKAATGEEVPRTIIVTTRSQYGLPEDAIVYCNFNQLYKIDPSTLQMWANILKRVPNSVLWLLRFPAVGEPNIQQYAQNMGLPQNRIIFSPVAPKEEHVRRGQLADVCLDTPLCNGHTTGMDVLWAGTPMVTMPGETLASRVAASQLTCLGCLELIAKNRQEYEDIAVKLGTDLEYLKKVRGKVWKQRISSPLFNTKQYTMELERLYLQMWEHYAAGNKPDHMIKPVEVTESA
Read-out: binding
Method: phage display NGS
Form: peptide
Notes: panning round 2
Relative to: input library
| Sequence | minimum log2 enrichment ratio |
| --- | --- |
| QSDFLPKYQLDLFSY | 3.7 |
| HWHLHDSLYHQVDIH | 3.17 |
| HSWDHIWHTTYDNDK | 2.38 |
| SDRTPYTPRYQISY | 2.97 |
| SINYKLQPKYQIFFP | 3.15 |
| TVTPKYPPQYQILV | 3.44 |
| QSMGFSYPPAYLIKY | 2.26 |
| HPVYHQVDTIQPHHH | 2.29 |
| EYTPEYQIHYQVVQS | 4.15 |
| YRHPPWDHHLDHHGR | 2.46 |
| TARNHHAAHYSLHRG | 3.36 |
| MWSPTVPPKYIIKYK | 2.97 |
| EQHFPPAYLITYKSR | 4.01 |

Sample 3
Target: Muscarinic acetylcholine receptor M1 (CHRM1, Homo sapiens, UniProt P11229)
Sequence of UniProt P11229 (whole entry, looked up): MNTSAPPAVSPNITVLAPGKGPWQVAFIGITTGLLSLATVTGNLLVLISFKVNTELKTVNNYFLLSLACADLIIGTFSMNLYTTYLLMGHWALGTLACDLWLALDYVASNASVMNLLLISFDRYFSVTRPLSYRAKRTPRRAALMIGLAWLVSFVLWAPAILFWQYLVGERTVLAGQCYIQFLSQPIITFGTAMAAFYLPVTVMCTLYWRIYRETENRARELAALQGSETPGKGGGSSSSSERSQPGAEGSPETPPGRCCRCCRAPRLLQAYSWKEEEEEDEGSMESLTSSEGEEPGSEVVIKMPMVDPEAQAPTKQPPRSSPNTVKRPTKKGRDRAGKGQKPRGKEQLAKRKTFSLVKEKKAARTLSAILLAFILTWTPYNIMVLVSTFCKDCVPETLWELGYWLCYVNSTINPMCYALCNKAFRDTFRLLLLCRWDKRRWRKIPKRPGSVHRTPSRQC
Read-out: binding
Method: radioligand binding
Concentration: 10 µM
| SMILES | inhibition |
| --- | --- |
| CC(=O)N1CCC(c2ccc(C(=O)NC(=N)N)cc2C(F)(F)F)CC1 | 12.4% |
| COc1nc2ccc([C@@](O)(c3ccccc3)C3CCN(C(C)=O)CC3)cc2c(Cl)c1Cc1ccc(-n2cccn2)cc1 | 5.4% |
| Cc1nccc(COC(=O)N2C[C@@H]3[C@@H](CNC(=O)c4ccc5[nH]nnc5c4)[C@@H]3C2)n1 | -23.9% |

Sample 4
Target: Prothrombin, mature alpha-thrombin (F2, Homo sapiens, UniProt P00734)
Method: aptamer microarray, sandwich
Form: DNA with 2'F-ANA
Matrix: in vitro
Concentration: 200 nM
Notes: whole 15-mer aptamer, many near background
Together with: Cy3 exosite-II aptamer, 400 nM
Direction: higher = stronger binding
Oligonucleotide: GGTTGGTGTGGTTGG
| Modification | mean fluorescence intensity [a.u.] |
| --- | --- |
| 2'F-ANA at 1 2 4 5 6 8 10 11 13 | 48.3 |
| 2'F-ANA at 1 4 6 10 12 15 | 85.2 |
| 2'F-ANA at 1 3 8 11 12 13 14 15 | 119 |
| 2'F-ANA at 1 6 7 8 12 13 14 15 | 74.4 |
| 2'F-ANA at 6 7 8 11 12 | 718 |
| 2'F-ANA at 1 2 3 4 5 6 7 8 9 10 11 13 14 15 | 57.8 |
| 2'F-ANA at 1 2 3 5 9 10 12 13 14 | 48.4 |
| 2'F-ANA at 1 4 6 7 8 11 12 15 | 244 |

Single results of other studies
| Compound | target | assay | setting | endpoint | result |
| --- | --- | --- | --- | --- | --- |
| COC(=O)[C@H]1[C@@H](O)[C@@]2(O)c3c(OC)cc(O)cc3O[C@@]2(c2ccc(OC)cc2)[C@@H]1c1ccccc1 | Eukaryotic initiation factor 4A-III (Homo sapiens, UniProt P38919) | RNA clamping, fluorescence polarization | concentration not given, together with: FAM-labelled poly r(AG)8 RNA | fluorescence polarization change | 44.3 mP |

Excerpt of the above (sample 2):
| Sequence | minimum log2 enrichment ratio |
| --- | --- |
| SINYKLQPKYQIFFP | 3.15 |
| TVTPKYPPQYQILV | 3.44 |
| QSMGFSYPPAYLIKY | 2.26 |
| HPVYHQVDTIQPHHH | 2.29 |
